# Measured values pooled from the literature.
# Parts stem from different laboratories: compare values within a part only. Several values in a cell are separate wells, animals, samples, runs or records.
# UniProt P51617, sequence (whole entry, looked up): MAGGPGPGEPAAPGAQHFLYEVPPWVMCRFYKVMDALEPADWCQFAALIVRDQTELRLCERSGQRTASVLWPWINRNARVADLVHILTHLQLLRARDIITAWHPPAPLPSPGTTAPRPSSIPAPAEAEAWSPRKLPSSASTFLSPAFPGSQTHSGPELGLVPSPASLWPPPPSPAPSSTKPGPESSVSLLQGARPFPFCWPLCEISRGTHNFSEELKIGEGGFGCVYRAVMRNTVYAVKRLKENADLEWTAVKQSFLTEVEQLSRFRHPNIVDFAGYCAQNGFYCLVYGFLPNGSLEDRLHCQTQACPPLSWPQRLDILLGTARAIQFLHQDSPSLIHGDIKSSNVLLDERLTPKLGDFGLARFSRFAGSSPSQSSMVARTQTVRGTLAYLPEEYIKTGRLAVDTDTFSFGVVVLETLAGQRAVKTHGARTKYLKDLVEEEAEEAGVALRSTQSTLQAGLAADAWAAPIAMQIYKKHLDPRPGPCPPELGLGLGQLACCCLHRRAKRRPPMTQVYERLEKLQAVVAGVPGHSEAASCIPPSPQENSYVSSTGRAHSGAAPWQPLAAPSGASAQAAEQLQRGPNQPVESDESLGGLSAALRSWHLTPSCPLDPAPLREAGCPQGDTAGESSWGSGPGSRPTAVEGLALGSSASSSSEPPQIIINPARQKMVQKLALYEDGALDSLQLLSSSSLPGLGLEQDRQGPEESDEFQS
# UniProt P49137, sequence (whole entry, looked up): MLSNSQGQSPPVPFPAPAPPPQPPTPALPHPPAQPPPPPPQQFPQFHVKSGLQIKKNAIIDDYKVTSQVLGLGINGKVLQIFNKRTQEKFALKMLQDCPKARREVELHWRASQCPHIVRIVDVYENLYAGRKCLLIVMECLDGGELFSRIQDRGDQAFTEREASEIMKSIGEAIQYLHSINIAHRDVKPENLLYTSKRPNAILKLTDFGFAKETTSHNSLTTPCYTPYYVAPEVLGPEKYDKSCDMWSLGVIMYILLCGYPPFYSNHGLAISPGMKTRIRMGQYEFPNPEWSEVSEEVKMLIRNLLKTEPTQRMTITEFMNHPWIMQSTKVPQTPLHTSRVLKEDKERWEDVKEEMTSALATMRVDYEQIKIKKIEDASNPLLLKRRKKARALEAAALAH
# UniProt Q96SB4, sequence (whole entry, looked up): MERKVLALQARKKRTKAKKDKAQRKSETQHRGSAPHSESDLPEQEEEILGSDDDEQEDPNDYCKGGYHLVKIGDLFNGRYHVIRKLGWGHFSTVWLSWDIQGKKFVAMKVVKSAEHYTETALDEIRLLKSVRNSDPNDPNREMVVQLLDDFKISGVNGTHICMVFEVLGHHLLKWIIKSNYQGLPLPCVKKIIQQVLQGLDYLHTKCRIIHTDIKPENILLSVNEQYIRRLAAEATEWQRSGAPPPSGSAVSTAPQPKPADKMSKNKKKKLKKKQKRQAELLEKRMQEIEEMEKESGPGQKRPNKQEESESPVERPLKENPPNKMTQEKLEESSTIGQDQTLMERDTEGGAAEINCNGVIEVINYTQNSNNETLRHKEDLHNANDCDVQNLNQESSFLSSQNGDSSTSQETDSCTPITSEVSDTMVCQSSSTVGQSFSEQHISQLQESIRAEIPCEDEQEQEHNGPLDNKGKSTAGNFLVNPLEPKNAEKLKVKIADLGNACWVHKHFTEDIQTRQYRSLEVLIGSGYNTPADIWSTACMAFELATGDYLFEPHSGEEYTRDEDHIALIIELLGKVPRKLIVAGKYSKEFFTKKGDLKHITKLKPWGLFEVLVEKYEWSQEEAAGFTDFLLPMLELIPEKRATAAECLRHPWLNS
# UniProt Q16620, sequence (whole entry, looked up): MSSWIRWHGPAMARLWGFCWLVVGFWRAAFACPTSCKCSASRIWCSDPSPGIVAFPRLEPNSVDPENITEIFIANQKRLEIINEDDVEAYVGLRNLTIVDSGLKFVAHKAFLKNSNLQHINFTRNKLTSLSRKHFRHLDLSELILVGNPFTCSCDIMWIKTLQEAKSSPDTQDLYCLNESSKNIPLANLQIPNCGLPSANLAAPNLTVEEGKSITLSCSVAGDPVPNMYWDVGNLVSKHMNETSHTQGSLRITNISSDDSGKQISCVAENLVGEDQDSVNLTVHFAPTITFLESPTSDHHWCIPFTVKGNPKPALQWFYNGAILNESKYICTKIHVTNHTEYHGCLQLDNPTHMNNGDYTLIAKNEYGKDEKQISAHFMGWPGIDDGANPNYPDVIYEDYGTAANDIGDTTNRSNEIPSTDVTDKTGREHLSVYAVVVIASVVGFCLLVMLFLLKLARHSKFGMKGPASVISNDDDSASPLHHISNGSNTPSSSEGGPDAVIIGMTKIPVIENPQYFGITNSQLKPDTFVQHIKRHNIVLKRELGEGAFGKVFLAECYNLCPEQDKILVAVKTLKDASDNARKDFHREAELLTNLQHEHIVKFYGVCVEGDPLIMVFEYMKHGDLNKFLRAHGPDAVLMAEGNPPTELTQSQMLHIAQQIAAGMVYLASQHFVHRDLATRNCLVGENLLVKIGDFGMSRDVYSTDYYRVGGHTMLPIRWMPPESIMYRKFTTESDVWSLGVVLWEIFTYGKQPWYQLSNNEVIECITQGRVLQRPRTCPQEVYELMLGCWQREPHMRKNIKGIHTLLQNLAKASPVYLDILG
# UniProt Q96PY6, sequence (whole entry, looked up): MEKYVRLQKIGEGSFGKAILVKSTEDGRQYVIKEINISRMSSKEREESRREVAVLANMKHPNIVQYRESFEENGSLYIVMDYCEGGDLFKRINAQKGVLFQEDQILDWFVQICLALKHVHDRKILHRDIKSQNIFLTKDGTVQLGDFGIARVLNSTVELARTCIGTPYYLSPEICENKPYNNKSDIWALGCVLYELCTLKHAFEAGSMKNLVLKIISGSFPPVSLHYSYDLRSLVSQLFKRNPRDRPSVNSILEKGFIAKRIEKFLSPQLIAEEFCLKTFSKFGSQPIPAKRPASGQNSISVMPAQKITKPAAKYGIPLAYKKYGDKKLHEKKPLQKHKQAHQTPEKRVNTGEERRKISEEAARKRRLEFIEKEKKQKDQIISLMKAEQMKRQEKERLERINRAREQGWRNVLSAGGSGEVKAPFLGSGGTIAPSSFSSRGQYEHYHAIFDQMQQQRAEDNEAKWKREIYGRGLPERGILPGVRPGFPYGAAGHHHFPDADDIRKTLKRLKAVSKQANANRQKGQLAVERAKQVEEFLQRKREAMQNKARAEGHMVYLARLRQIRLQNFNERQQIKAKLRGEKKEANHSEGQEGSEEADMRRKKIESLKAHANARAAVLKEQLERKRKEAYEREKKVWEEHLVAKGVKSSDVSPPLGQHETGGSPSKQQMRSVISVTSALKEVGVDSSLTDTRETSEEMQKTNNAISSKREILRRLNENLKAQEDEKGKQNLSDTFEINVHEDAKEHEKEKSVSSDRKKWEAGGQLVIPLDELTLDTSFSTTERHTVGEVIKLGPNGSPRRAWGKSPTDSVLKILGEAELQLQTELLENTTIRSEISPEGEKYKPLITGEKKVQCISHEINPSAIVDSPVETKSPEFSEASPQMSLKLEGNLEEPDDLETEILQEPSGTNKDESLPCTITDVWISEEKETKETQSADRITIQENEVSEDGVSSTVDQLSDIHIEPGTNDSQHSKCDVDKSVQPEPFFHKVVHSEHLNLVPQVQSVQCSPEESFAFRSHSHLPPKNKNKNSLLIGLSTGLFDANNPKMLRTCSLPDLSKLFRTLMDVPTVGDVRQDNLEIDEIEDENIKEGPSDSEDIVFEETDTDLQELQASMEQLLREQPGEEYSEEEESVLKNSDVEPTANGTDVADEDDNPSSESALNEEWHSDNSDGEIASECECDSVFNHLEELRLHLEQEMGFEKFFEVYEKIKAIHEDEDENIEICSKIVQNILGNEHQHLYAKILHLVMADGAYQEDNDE
# UniProt P45983, sequence (whole entry, looked up): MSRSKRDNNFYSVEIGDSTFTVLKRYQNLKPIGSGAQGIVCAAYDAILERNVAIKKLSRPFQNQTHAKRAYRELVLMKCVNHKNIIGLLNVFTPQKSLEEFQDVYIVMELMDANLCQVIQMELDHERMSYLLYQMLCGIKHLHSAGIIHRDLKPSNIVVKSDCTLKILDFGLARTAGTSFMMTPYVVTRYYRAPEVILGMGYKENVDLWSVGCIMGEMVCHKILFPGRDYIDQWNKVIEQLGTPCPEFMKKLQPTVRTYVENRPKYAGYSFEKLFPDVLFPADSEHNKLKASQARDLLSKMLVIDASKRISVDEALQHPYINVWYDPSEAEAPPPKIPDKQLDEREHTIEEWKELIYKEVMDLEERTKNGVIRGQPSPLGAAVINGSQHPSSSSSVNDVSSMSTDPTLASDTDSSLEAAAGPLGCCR
# UniProt Q9HBY8, sequence (whole entry, looked up): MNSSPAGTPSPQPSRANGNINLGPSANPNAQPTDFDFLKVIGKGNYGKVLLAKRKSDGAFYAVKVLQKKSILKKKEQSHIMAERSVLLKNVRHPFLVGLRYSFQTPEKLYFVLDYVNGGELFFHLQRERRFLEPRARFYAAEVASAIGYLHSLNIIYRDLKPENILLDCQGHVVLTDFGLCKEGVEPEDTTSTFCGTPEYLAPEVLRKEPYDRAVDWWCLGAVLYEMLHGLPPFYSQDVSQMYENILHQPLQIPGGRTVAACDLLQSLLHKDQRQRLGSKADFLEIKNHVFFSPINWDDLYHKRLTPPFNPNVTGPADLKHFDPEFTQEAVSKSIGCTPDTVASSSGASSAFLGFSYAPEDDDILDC
# UniProt P11309, sequence (whole entry, looked up): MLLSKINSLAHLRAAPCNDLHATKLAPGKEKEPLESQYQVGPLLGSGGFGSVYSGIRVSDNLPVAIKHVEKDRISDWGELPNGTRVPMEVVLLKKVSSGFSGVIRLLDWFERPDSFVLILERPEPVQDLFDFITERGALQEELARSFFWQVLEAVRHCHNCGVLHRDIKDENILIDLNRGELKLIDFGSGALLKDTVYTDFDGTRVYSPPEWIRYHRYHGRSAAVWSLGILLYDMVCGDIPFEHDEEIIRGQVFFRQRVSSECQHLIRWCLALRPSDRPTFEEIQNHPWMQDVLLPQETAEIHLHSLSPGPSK

# Block 1
# Host: CD-1 mouse, female
# Medium: plasma
# Route: intravenous
# Dose: 1 mg/kg
Structure (SMILES),volume of distribution (steady state) [L/kg]
Cc1ccc(O)c(C)c1-c1cnc2[nH]c(-c3cnc(N4CCC(CN5CCN(c6ccc7c(c6F)CN(C6CCC(=O)NC6=O)C7=O)CC5)CC4)nc3)cc2c1C#N (stereo not drawn),1.6
Cc1ccc(O)c(C)c1-c1cnc2[nH]c(-c3cnc(N4CCC(CN5CCN(c6cc7c(cc6F)n(C6CCC(=O)NC6=O)c(=O)n7C)CC5)CC4)nc3)cc2c1C#N (stereo not drawn),1.8
Cc1ccc(O)c(C)c1-c1cnc2[nH]c(-c3cnc(N4CCC5(CC4)CC(N4CCN(c6ccc(NC7CCC(=O)NC7=O)cc6F)CC4)CO5)nc3)cc2c1C#N (stereo not drawn),3.8
Cc1ccc(O)c(C)c1-c1cnc2[nH]c(-c3cnc(N4CC5(CC(CN6CCN(c7ccc(NC8CCC(=O)NC8=O)cc7F)CC6)C5)C4)nc3)cc2c1C#N (stereo not drawn),3.9
Cc1ccc(O)c(C)c1-c1cnc2[nH]c(-c3cnc(N4CCC5(CC4)CC(CN4CCN(c6ccc(NC7CCC(=O)NC7=O)cc6F)CC4)C5)nc3)cc2c1C#N (stereo not drawn),3.7
Cc1ccc(O)c(C)c1-c1cnc2[nH]c(-c3cnc(N4CCC(CN5CCN(c6ccc(NC7CCC(=O)NC7=O)cc6F)CC5)CC4)nc3)cc2c1C#N (stereo not drawn),2.7

# Block 2
# Organism: Arabidopsis thaliana
# Strain: Col-0
# Concentration: 50 µg/mL
# Notes: seed germination, single repetition
SMILES,hypocotyl length
Cc1ccc2c(c1)OC(O)(C(=O)O)C(=O)N2Cc1ccccc1 (stereo not drawn),1.62 cm and 1.63 cm and 1.69 cm and 1.68 cm
CC(C)=CCN1C(=O)C(O)(C(=O)O)Oc2cc(F)ccc21 (stereo not drawn),1.84 cm and 1.81 cm and 1.82 cm and 1.83 cm
O=C(O)C1(O)Oc2ccccc2N(Cc2ccccc2)C1=O (stereo not drawn),1.45 cm and 1.41 cm and 1.48 cm and 1.43 cm
CN1C(=O)C(O)(C(=O)O)Oc2cc(F)ccc21 (stereo not drawn),1.68 cm and 1.71 cm and 1.78 cm and 1.77 cm and 1.87 cm
O=C(O)C1(O)Oc2cc(Br)ccc2N(Cc2ccccc2)C1=O (stereo not drawn),1.32 cm and 1.35 cm and 1.34 cm and 1.33 cm and 1.38 cm

# Block 3
# Compound: COc1cc(C(=O)OCCCN2CCCN(CCCOC(=O)c3cc(OC)c(OC)c(OCc4ccc([N+](=O)[O-])cc4)c3)CC2)cc(OC)c1OC
# Method: electrocardiography
host,route,dose,time,heart rate
mouse,intravenous,30 mg/kg,baseline,480 beats/min and 584 beats/min and 588 beats/min and 529 beats/min and 570 beats/min and 580 beats/min
mouse,intraperitoneal,30 mg/kg,before dosing,568 beats/min and 640 beats/min and 607 beats/min
mice,intraperitoneal,30 mg/kg,10 min,550 beats/min and 635 beats/min and 560 beats/min
mouse,intravenous,30 mg/kg,30 min,548 beats/min and 464 beats/min and 364 beats/min and 586 beats/min and 547 beats/min and 408 beats/min
mouse,intraperitoneal,10 mg/kg,10 min,560 beats/min and 589 beats/min and 630 beats/min
mice,intraperitoneal,10 mg/kg,60 min,555 beats/min and 570 beats/min and 624 beats/min

# Block 4
# Compound: CN(C1COC1)C(C)(C)/C=C(\C#N)C(=O)N1CCC[C@H]1Cn1nc(-c2ccc(Oc3ccccc3)cc2F)c2c(N)ncnc21
# Read-out: kinase activity
target,concentration,inhibition
"CDC42BPA (Homo sapiens, UniProt Q5VT25)",0.1 µM,5%
"IRAK1 (Homo sapiens, UniProt P51617)",0.1 µM,6%
"NEK1 (Homo sapiens, UniProt Q96PY6)",0.1 µM,3%
"PRKD3 (Homo sapiens, UniProt O94806)",0.1 µM,6%
"NTRK2 (Homo sapiens, UniProt Q16620)",1 µM,-1%
"SGK2 (Homo sapiens, UniProt Q9HBY8)",0.1 µM,16%
"TYRO3 (Homo sapiens, UniProt Q06418)",1 µM,1%
"CSNK1G2 (Homo sapiens, UniProt P78368)",1 µM,-2%
"PAK5 (Homo sapiens, UniProt Q9P286)",1 µM,-8%
"SRPK1 (Homo sapiens, UniProt Q96SB4)",1 µM,-1%
"STK3 (Homo sapiens, UniProt Q13188)",1 µM,5%
"KDR (Homo sapiens, UniProt P35968)",0.1 µM,-1%
"EPHB3 (Homo sapiens, UniProt P54753)",0.1 µM,0%
"MAPK8 (Homo sapiens, UniProt P45983)",1 µM,-10%
"PIM1 (Homo sapiens, UniProt P11309)",0.1 µM,8%
"MAPKAPK2 (Homo sapiens, UniProt P49137)",1 µM,1%

# For quick reference, copied from above (block 4):
target,concentration,inhibition
"SGK2 (Homo sapiens, UniProt Q9HBY8)",0.1 µM,16%
"EPHB3 (Homo sapiens, UniProt P54753)",0.1 µM,0%
